Results collected from several papers.
Compare with care: the assays were run in different laboratories. ± marks the error that the study gave.

N=C(N)NCc1ccc(C(=O)NCCCC[C@H](NC(=O)CCCCCCC(=O)NCCCC[C@H](NC(=O)N[C@@H](CCC(=O)O)C(=O)O)C(=O)O)C(=O)O)cc1[131I]  tissue uptake (SCID mouse, PC-3 xenografts, bone; 21 h): 0.02 ± 0.01 %ID/g
O=C(O)CC[C@H](NC(=O)O[C@@H](CCCCNC(=O)c1ccc([18F])cc1)C(=O)O)C(=O)O  tissue uptake (mouse, PC-3 PIP/flu xenografts, bone; 60 min): 0.72 ± 0.31 %ID/g
N=C(N)NCc1ccc(C(=O)NCCCC[C@H](NC(=O)N[C@@H](CCC(=O)O)C(=O)O)C(=O)O)cc1[131I]  tissue uptake (SCID mouse, PC-3 xenografts, brain; 4 h): 0.04 ± 0.01 %ID/g
C[S]1CC[S]2CC[P](CO)(CO)[99Tc+]12.[C-]#[O+].[C-]#[O+].[C-]#[O+]  tissue uptake (female CF-1 mouse, large intestine; intravenous, 4 h): 58.2 %ID/g
N=C(N)NCc1ccc(C(=O)NCCCC[C@H](NC(=O)N[C@@H](CCC(=O)O)C(=O)O)C(=O)O)cc1[211At]  tissue uptake (SCID mouse, PC-3 xenografts, muscle; 4 h): 0.23 ± 0.1 %ID/g
CN[C@](C)(C[18F])C(=O)O  tissue uptake (SCID mouse U87 xenograft, liver; 120 min, post injection): 3.9 ± 1.5 %ID/g
C=Cc1cc(O)cc2nc(-c3ccc(O)c([76Br])c3)oc12  tissue uptake (female C57BL/6 mouse, kidney; 6 h, high dose): 0.3 ± 0.12 %ID/g
CCCC[C@H](NC(=O)CCOCCOCCNC(=O)CN1CCN(CC(=O)O)CCN(CC(=O)O)CCN(CC(=O)O)CC1)C(=O)N[C@H]1CC(=O)NCCCC[C@@H](C(N)=O)NC(=O)[C@H](Cc2c[nH]c3ccccc23)NC(=O)[C@H](CCCNC(=N)N)NC(=O)[C@@H](Cc2ccccc2)NC(=O)[C@H](Cc2c[nH]cn2)NC1=O [gallium-68 labelled]  tissue uptake (biodistribution; C57BL/6J mouse male tumour-bearing, adrenal glands; 1 h post injection, unblocked): 0.3 ± 0.2 %ID/g
COc1cc2ncnc(Oc3cccc(N[11C](=O)Nc4cc(C(C)(C)C(F)(F)F)on4)c3)c2cc1OC  tissue uptake (Balb/c nude mouse, female, A375 melanoma xenograft, skin; 6.6 MBq, 60 min): 2.57 ± 0.18 %ID/g
CCCC[C@H](NC(=O)CN1CCC(NC(=O)CN2CCC(NC(=O)CN3CCN(CC(=O)O)CCN(CC(=O)O)CCN(CC(=O)O)CC3)CC2)CC1)C(=O)N[C@H]1CC(=O)NCCCC[C@@H](C(N)=O)NC(=O)[C@H](Cc2c[nH]c3ccccc23)NC(=O)[C@H](CCCNC(=N)N)NC(=O)[C@@H](Cc2ccccc2)NC(=O)[C@H](Cc2c[nH]cn2)NC1=O [gallium-68 labelled]  tissue uptake (biodistribution; C57BL/6J mouse male tumour-bearing, seminal vesicle; 1 h post injection, unblocked): 0.1 ± 0.1 %ID/g
CC[C@H](C)[C@@H]1NC(=O)[C@@H](NC(=O)CNC(=O)c2ccc(F)cc2)CSSC[C@@H]2NC(=O)[C@H](C)NC(=O)CNC(=O)[C@@H]3CCCN3C(=O)[C@@H]3CSSC[C@@H](C(=O)NCC(=O)O)NC(=O)[C@H](Cc4ccc(O)cc4)NC(=O)CNC(=O)[C@H](CC(N)=O)NC(=O)CNC(=O)[C@H](CCCNC(=N)N)NC(=O)[C@H](CSSC[C@H](NC(=O)[C@H](CCCNC(=N)N)NC(=O)[C@H](Cc4ccccc4)NC(=O)[C@H](CC(C)C)NC(=O)[C@H](CC(C)C)NC(=O)[C@H]([C@@H](C)O)NC(=O)CNC(=O)[C@H](CC(C)C)NC(=O)[C@H](CC(=O)O)NC(=O)[C@H]([C@@H](C)O)NC(=O)[C@H](CCCNC(=N)N)NC(=O)[C@H](CCSC)NC(=O)[C@H](CC(N)=O)NC(=O)[C@H](CC(C)C)NC1=O)C(=O)N[C@@H](CCCNC(=N)N)C(=O)N[C@@H](CCCNC(=N)N)C(=O)N[C@@H](CC(=O)O)C(=O)N[C@@H](CO)C(=O)N[C@@H](CC(=O)O)C(=O)N3)NC(=O)[C@H]([C@@H](C)CC)NC2=O [fluorine-18 labelled]  tissue uptake (γ-counting; mouse, stomach): 1.6 ± 0.4 %ID/g

For quick reference, copied from above:
C=Cc1cc(O)cc2nc(-c3ccc(O)c([76Br])c3)oc12  tissue uptake (female C57BL/6 mouse, kidney; 6 h, high dose): 0.3 ± 0.12 %ID/g
